Experimental data gathered from unrelated publications.
Parts stem from different laboratories: compare values within a part only.
Sequence of UniProt P42336 (whole entry, unmodified, looked up): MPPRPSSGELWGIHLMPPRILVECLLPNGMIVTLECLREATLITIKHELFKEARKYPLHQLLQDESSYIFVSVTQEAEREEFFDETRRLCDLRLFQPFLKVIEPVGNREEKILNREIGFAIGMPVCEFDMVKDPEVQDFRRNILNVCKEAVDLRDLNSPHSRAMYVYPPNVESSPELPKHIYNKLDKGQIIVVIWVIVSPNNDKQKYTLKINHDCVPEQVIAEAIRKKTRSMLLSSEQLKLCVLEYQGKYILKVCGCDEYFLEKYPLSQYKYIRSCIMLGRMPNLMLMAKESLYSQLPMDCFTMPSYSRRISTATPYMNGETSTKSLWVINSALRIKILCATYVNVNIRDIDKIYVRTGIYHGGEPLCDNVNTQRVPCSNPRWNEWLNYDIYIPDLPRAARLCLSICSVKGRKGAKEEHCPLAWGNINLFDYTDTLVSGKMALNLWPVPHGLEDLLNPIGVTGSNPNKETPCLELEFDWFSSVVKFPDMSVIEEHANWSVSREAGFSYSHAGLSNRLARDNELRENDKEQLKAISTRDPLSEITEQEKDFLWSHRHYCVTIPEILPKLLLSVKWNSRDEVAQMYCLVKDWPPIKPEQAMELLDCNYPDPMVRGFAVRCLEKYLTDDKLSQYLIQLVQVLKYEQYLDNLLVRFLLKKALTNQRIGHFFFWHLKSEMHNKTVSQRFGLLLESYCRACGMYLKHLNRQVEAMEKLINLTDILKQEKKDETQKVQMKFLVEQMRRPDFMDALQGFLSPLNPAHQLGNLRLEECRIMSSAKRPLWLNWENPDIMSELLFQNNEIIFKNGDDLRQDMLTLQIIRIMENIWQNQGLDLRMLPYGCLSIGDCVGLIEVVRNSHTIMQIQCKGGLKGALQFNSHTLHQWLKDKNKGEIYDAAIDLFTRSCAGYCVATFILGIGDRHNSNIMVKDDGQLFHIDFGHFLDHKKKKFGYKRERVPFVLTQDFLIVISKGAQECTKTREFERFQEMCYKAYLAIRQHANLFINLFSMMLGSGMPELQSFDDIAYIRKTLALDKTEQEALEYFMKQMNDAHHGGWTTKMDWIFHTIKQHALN
Sequence of UniProt Q00535 (whole entry, looked up): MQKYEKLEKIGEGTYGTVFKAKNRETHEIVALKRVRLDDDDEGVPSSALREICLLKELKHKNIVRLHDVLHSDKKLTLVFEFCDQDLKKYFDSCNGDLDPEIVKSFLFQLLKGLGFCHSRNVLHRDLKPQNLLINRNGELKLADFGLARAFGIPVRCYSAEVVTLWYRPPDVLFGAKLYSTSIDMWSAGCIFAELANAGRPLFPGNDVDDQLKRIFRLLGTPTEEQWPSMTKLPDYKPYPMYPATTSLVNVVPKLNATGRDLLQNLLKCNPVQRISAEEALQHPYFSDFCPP

Series 1 — observed: enzyme activity; mode: inhibitor; concentration: 0.5 µM; relative to: control; quantity: remaining activity
Target: Macrophage colony-stimulating factor 1 receptor (CSF1R, Homo sapiens, UniProt P07333)
Sequence of UniProt P07333 (whole entry, looked up): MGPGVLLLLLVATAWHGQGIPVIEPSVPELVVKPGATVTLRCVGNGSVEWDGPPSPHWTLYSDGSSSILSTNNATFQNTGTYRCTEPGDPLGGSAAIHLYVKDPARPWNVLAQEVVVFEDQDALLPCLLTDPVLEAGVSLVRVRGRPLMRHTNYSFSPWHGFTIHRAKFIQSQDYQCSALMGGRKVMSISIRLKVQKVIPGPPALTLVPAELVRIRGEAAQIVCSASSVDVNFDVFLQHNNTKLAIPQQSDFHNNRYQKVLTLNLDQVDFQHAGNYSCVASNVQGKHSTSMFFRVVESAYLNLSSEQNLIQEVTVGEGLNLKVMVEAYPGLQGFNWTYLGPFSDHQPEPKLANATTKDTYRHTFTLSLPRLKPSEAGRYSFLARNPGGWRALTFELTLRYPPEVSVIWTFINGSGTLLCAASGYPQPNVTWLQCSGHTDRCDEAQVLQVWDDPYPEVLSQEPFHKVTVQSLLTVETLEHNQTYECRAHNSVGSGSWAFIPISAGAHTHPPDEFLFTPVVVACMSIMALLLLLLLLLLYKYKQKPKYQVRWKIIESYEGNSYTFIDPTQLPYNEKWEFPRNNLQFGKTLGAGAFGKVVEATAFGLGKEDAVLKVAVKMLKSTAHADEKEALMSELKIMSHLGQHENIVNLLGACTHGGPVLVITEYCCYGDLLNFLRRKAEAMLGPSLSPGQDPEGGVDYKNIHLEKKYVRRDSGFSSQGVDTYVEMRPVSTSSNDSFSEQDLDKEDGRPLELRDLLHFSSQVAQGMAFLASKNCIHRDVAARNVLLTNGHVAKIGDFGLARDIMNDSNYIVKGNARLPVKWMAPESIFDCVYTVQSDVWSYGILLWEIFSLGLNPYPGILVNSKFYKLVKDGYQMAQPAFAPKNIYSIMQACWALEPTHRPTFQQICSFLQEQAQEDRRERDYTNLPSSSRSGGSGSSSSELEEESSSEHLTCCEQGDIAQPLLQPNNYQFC
COc1cc2ncnc(Nc3ccc(OCc4ccccc4)cc3)c2cc1OC: 97.8%
CC(C)[C@H](CO)Nc1nc(Nc2cccc(Cl)c2)c2ncn(C(C)C)c2n1: 96.9%
CC(C)c1nn(-c2c(Cl)cccc2Cl)c2nc(Cc3ccc(OCCO)cc3)[nH]c(=O)c12: 94.6%
CCC(=O)Nc1ccc2ncnc(Nc3cccc(Br)c3)c2c1: 98.9%
COc1ccc(Cl)cc1NC(=O)Nc1cc(C)nc2ccccc12: 94.8%
COc1cc2ncc(-c3ccccc3)nc2cc1OC: 88.2%
O=C1NC(=O)/C(=C/c2ccc3nccnc3c2)S1: 110%
Cn1cnc2cc3c(Nc4cccc(Br)c4)ncnc3cc21: 94.4%
CCOc1cc2ncnc(Nc3cccc(Br)c3)c2cc1OCC: 87.6%
CN(C)CCCn1cc(C2=C(c3c[nH]c4ccccc34)C(=O)NC2=O)c2ccccc21: 76.7%
CS(=O)(=O)CCNCc1ccc(-c2ccc3ncnc(Nc4ccc(OCc5cccc(F)c5)c(Cl)c4)c3c2)o1: 106%
Cn1cc(/C=C2\C(=O)Nc3ccc(S(N)(=O)=O)cc32)c2ccccc21: 82.5%
Nc1[nH]nc2nnc(-c3c(-c4ccccc4)nn4ccccc34)cc12: 96.8%
O=c1cc(N2CCOCC2)oc2c1ccc1ccccc12: 103%
O=C(Nc1ccc(Cl)cc1)c1ccccc1NCc1ccncc1: 18.4%
COc1ccc(-c2cnc3c(-c4ccsc4)cnn3c2)cc1: 53.6%
C[S+]([O-])c1ccc(-c2nc(-c3ccncc3)c(-c3ccc(F)cc3)[nH]2)cc1 (stereo not drawn): 95.5%
CC(=O)O/N=C1/C(c2c(O)[nH]c3cc(Br)ccc23)=Nc2ccccc21: 84%
CCN1/C(=C/C(C)=O)Sc2ccc(OC)cc21: 93.8%
COc1cc2ncnc(N3CCN(C(=O)Nc4ccc(Oc5ccccc5)cc4)CC3)c2cc1OC: 67.2%

Series 2 — observed: ATPase activity; concentration: concentration not given; notes: with minus without ssDNA; quantity: activity difference
Target: DNA polymerase theta, helicase domain (POLQ, Homo sapiens, UniProt O75417)
Sequence of UniProt O75417 (whole entry, looked up): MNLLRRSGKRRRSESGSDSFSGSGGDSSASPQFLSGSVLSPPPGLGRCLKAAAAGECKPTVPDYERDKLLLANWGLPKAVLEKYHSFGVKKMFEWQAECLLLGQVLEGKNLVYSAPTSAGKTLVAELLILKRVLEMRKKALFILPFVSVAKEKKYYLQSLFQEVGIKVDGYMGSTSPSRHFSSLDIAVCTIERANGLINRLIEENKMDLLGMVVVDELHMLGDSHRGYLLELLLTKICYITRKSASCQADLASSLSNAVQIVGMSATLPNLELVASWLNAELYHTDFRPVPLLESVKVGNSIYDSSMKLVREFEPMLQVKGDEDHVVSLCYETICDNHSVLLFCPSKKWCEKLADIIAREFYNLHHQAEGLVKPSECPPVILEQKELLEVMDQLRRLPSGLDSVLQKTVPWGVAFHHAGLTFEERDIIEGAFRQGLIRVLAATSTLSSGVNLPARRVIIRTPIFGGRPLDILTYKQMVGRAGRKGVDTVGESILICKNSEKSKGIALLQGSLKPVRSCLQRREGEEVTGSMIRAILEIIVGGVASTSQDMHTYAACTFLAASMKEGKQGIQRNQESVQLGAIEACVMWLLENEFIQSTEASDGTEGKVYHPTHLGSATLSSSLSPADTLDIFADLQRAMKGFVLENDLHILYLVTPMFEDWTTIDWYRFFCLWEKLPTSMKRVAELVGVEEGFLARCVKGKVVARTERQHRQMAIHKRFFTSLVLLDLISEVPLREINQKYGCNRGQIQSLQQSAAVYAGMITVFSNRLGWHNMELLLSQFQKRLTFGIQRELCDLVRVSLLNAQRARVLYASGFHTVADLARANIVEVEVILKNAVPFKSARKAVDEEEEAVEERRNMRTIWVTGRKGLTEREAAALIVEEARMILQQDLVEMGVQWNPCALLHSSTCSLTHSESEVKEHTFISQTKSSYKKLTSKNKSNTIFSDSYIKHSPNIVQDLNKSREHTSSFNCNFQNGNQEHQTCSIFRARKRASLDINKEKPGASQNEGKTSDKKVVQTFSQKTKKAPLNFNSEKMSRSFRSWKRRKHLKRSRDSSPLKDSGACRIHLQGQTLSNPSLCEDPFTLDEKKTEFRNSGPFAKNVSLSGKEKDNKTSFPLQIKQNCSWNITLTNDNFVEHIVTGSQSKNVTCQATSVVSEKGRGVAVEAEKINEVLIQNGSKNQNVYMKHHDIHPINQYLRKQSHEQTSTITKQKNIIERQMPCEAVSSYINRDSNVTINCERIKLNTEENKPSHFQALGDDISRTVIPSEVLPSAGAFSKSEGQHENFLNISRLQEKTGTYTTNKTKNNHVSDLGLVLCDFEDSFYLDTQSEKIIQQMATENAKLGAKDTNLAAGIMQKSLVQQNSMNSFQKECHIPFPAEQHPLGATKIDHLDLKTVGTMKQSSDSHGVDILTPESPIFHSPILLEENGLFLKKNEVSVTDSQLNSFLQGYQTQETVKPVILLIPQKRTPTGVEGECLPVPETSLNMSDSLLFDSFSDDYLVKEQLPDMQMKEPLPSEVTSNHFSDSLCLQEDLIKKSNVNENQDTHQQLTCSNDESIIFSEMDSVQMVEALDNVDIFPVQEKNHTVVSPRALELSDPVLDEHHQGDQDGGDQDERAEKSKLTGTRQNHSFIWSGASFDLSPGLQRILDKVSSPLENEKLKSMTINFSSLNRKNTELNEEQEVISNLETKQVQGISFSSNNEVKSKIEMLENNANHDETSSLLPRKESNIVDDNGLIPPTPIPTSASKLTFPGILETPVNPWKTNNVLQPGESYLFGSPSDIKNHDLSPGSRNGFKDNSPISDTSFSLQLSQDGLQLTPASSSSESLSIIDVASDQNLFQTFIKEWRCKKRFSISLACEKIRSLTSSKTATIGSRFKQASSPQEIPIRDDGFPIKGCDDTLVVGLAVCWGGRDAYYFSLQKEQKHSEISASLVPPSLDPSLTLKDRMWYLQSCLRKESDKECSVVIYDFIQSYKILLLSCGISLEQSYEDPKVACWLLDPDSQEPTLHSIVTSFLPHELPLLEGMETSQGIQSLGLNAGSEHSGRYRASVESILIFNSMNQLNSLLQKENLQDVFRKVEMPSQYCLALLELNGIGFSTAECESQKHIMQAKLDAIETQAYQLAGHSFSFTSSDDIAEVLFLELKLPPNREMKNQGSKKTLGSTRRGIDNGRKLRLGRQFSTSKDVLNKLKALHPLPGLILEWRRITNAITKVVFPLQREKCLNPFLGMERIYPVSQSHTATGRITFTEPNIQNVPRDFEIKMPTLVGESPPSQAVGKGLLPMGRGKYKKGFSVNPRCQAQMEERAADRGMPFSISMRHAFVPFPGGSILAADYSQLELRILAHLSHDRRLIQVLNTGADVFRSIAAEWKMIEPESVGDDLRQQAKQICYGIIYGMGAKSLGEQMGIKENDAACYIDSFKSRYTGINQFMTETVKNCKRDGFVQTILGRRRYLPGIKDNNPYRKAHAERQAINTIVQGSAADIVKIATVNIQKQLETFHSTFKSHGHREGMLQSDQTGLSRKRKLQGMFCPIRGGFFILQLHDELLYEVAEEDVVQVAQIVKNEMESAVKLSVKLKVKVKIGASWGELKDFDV
CC(=O)Oc1ccccc1C(=O)Nc1ncc([N+](=O)[O-])s1: 4.44%
O=C(O)[C@]1(Cc2cccc(Nc3nccs3)n2)CC[C@@H](Oc2cccc(Cl)c2F)CC1: 4.53%
CCOc1nc2cccc(C(=O)OCc3oc(=O)oc3C)c2n1Cc1ccc(-c2ccccc2-c2noc(=O)[nH]2)cc1: 12.4%
O=C(Nc1ccccc1C(=O)O)c1cccc(S(=O)(=O)N2CCCC2)c1: 1.74%
CCCCCCCCCCCCc1ccc(S(=O)(=O)Nc2nncs2)cc1: 10.2%

Series 3 — method: competition with immobilised ligand; concentration: 1 µM; quantity: remaining binding
Structure (SMILES): C[C@H](c1ccc(F)cc1)N(Cc1cccc(C(=O)O)c1)C(=O)c1cnc2ccccc2c1
PNCK (Homo sapiens, UniProt Q6P2M8); cell-free assay: 100%
PI4KB (Homo sapiens, UniProt Q9UBF8); cell-free assay: 98%
GSK3A (Homo sapiens, UniProt P49840); cell-free assay: 100%
CDKL3 (Homo sapiens, UniProt Q8IVW4); binding: 64%
PRPF4B (Homo sapiens, UniProt Q13523); cell-free assay: 100%
FLT4 (Homo sapiens, UniProt P35916); cell-free assay: 95%
CSNK2A1 (Homo sapiens, UniProt P68400); cell-free assay: 100%
FLT3 (Homo sapiens, UniProt P36888, R834Q); cell-free assay: 100%
GRK2 (Homo sapiens, UniProt P25098); cell-free assay: 80%
EGFR (Homo sapiens, UniProt P00533, G719C); cell-free assay: 90%
CHEK1 (Homo sapiens, UniProt O14757); cell-free assay: 100%
CDK5 (Homo sapiens, UniProt Q00535); cell-free assay: 100%
PIK3CA (Homo sapiens, UniProt P42336, E545K); cell-free assay: 100%
MATK (Homo sapiens, UniProt P42679); cell-free assay: 79%
LRRK2 (Homo sapiens, UniProt Q5S007, G2019S); cell-free assay: 100%
SYK (Homo sapiens, UniProt P43405); cell-free assay: 87%
STK24 (Homo sapiens, UniProt Q9Y6E0); cell-free assay: 100%
PIK3CA (Homo sapiens, UniProt P42336, E545A); cell-free assay: 100%
FLT3 (Homo sapiens, UniProt P36888, N841I); cell-free assay: 62%
PRKACA (Homo sapiens, UniProt P17612); cell-free assay: 100%
STK35 (Homo sapiens, UniProt Q8TDR2); cell-free assay: 93%
MAK (Homo sapiens, UniProt P20794); binding: 100%
EPHB6 (Homo sapiens, UniProt O15197); cell-free assay: 88%
TEC (Homo sapiens, UniProt P42680); binding: 80%
PIK3CA (Homo sapiens, UniProt P42336, H1047L); cell-free assay: 100%

Mixed results
CC(C)n1cnc(-c2ccc(F)cc2)c1-c1ncc(C(=O)Nc2ccc(N3CCN(C)CC3)cc2)[nH]1  patients with gastro-oesophageal reflux (human, idiopathic pulmonary fibrosis; 60 mg once daily, trial, treatment-emergent): 0%

Excerpt of the above (series 3):
MATK (Homo sapiens, UniProt P42679); cell-free assay: 79%
LRRK2 (Homo sapiens, UniProt Q5S007, G2019S); cell-free assay: 100%
SYK (Homo sapiens, UniProt P43405); cell-free assay: 87%
STK24 (Homo sapiens, UniProt Q9Y6E0); cell-free assay: 100%
